Published values pooled from the literature.
Protocols differ between the studies behind these lines. “And” joins repeats or separate records; there may be more than shown. ± marks the error that the study gave. Square brackets hold non-standard residues; d marks the D form. Ends that are not written are not given here.
Partner: itself
B1: Gag/MVP Gag 148-214 fused to MVP (HIV-1/Rattus norvegicus); chain MTPRTLNAWVKVVEEKAFSPEVIPMFTALSEGATPSDLNTMLNTIGGHQAAMQMLKDTINEEAAEWDRGFLGLMATEEAIIRIPPYHYIHVLDQNSNVSRVEVGPKTYIRQDNERVLFAPVRMVTVPPRHYCIVANPVSRDTQSSVLFDITGQVRLRHADQEIRLAQDPFPLYPGEVLEKDITPLQVVLPNTALHLKALLDFEDKNGDKVMAGDEWLFEGPGTYIPQKEVEVVEIIQATVIKQNQALRLRARKECFDREGKGRVTGEEWLVRSVGAYLPAVFEEVLDLVDAVILTEKTALHLRALQNFRDLRGVLHRTGEEWLVTVQDTEAHVPDVYEEVLGVVPITTLGPRHYCVILDPMGPDGKNQLGQKRVVKGEKSFFLQPGERLERGIQDVYVLSEQQGLLLKALQPLEEGESEEKVSHQAGDCWLIRGPLEYVPSAKVEVVEERQAIPLDQNEGIYVQDVKTGKVRAVIGSTYMLTQDEVLWEKELPSGVEELLNLGHDPLADRGQKGTAKPLQPSAPRNKTRVVSYRVPHNAAVQVYDYRAKRARVVFGPELVTLDPEEQFTVLSLSAGRPKRPHARRALCLLLGPDFFTDVITIETADHARLQLQLAYNWHFELKNRNDPAEAAKLFSVPDFVGDACKAIASRVRGAVASVTFDDFHKNSARIIRMAVFGFEMSEDTGPDGTLLPKARDQAVFPQNGLVVSSVDVQSVEPVDQRTRDALQRSVQLAIEITTNSQEAAAKHEAQRLEQEARGRLERQKILDQSEAEKARKELLELEAMSMAVESTGNAKAEAESRAEAARIEGEGSVLQAKLKAQALAIETEAELERVKKVREMELIYARAQLELEVSKAQQLANVEAKKFKEMTEALGPGTIRDLAVAGPEMQVKLLQSLGLKSTLITDGSSPINLFSTAFGLLGLGSDGQPPAQK
B2: vapC I44A (Salmonella typhimurium, UniProt Q8ZM86); chain MLKFMLDTNTCIFTIKNKPEHIRERFNLNTSRMCISSITLMELAYGAEKSLAPERNLAVVEGFISRLEVLDYDTQAAIHTGQIRAELARKGTPVGPYDQMIAGHAGSRGLVVVTNNLREFERIPGIRIEDWC
B3: GCN4 leucine zipper heterodimer leucine zipper; C-terminal disulfide link; chain 1 MKVKQLVDKVEELLSKNYHLVNEVARLVKLVGERGGC; chain 2 MKVKQLEDVVEELLSVNYHLENVVARLKKLVGERGGC
B4: estF trimer 2-272 T3C/Q174C (Pseudomonas fluorescens, UniProt P22862); chain SCFVAKDGTQIYFKDWGSGKPVLFSHGWLLDADMWEYQMEYLSSRGYRTIAFDRRGFGRSDQPWTGNDYDTFADDIAQLIEHLDLKEVTLVGFSMGGGDVARYIARHGSARVAGLVLLGAVTPLFGQKPDYPQGVPLDVFARFKTELLKDRAQFISDFNAPFYGINKGQVVSCGVQTQTLQIALLASLKATVDCVTAFAETDFRPDMAKIDVPTLVIHGDGDQIVPFETTGKVAAELIKGAELKVYKDAPHGFAVTHAQQLNEDLLAFLKR
B5: retS periplasmic 41-185 S45C (Pseudomonas aeruginosa, UniProt Q9HUV7); Alexa Fluor 488 or 555; chain ATTPCANQNWRLLRDESAQLRIADVLQRKEQFRPLAKRSFIFPASPQAVWLQVQLPAQKVPSWLWIFAPRVQYLDYYLVQDGQLVRDQHTGESRPFQERPLPSRSYLFSLPVDGKPMTLYVRMTSNHPLMAWFDQIDEAGLVGLE
B6: vapC L43A (Salmonella typhimurium, UniProt Q8ZM86); chain MLKFMLDTNTCIFTIKNKPEHIRERFNLNTSRMCISSITLMEAIYGAEKSLAPERNLAVVEGFISRLEVLDYDTQAAIHTGQIRAELARKGTPVGPYDQMIAGHAGSRGLVVVTNNLREFERIPGIRIEDWC
B7: collagen-like peptide; hydroxyproline at 16,19,22,25,28,31,34,37; Hyp = O=C(O)[C@@H]1C[C@@H](O)CN1; chain CGPKGPKGPKGPKGP[Hyp]GP[Hyp]GP[Hyp]GP[Hyp]GD[Hyp]GD[Hyp]GD[Hyp]GD[Hyp]G
B8: PUT2 23-575 (Saccharomyces cerevisiae, UniProt P07275); sequence looked up; chain KPPKHIRNEPVKPFRNIDLKDWDLLRASLMKFKSSSLEVPLVINGERIYDNNERALFPQTNPANHQQVLANVTQATEKDVMNAVKAAKDAKKDWYNLPFYDRSAIFLKAADLISTKYRYDMLAATMLGQGKNVYQAEIDCITELSDFFRYYVKYASDLYAQQPVESADGTWNKAEYRPLEGFVYAVSPFNFTAIAANLIGAPALMGNTVVWKPSQTAALSNYLLMTVLEEAGLPKGVINFIPGDPVQVTDQVLADKDFGALHFTGSTNVFKSLYGKIQSGVVEGKYRDYPRIIGETGGKNFHLVHPSANISHAVLSTIRGTFEFQGQKCSAASRLYLPESKSEEFLSDMFGILQSQNVVPMNTSASPISGGNLRGFMGPVIHEQSFDKLVKVIEDAKKDPELEILYGGQYDKSQGWFVGPTVIKAKRPDHPYMSTEFFGPILTVYEYPDTEFNEICDIIDNTSQYALTGAIFAKDRKAIEYADEKLKFSAGNFYINDKCTGAVVSQQWFGGARMSGTDDKAGGPNILSRFVSIRNTKENFYELTDFKYPSNYE
B9: rne 330-823 D694R/D738R (Mycolicibacterium smegmatis, UniProt A0R152); chain SDKSDDSEIQGISGSTRLEAKRQRRRDGRDAGRRRPPILSEAEFLARREAVERTMIVRDKVRTEPPHEGARYTQIAVLEDGVVVEHFVTSAASASLVGNIYLGIVQNVLPSMEAAFVDIGRGRNGVLYAGEVNWEAAGLGGQNRKIEQALKPGDYVVVQVSKDPVGHKGARLTTQVSLAGRYLVYVPGASSTGISRKLPDTERQRLKEILREVVPSDAGVIIRTASEGVKEEDIRSDVERLQKRWSEIEAKAAEVTEKKAGAAVALYEEPDVLVKVIRDLFNEDFSSLIVSGDEAWNTINSYVEAVAPDLMPRLTKYEPAGPDAPDVFAVHRIDEQLAKAMDRKVWLPSGGTLVIDRTEAMTVVRVNTGKFTGSGGNLEQTVTRNNLEAAEEIVRQLRLRDIGGIVVIRFIDMVLESNRDLVLRRLTEALARDRTRHQVSEVTSLGLVQLTRKRLGTGLVEAFSTACTHCGGRGIVLHGDPIDSASSNGGRKSD

Sequence | test | test system | conditions | scale | endpoint | value
B1 | cryo-EM |  |  |  | subunits per oligomer | 78
B2 (vapC I44A) | lacZ reporter |  |  | reference: wild type, higher = more transcription | vapBC transcription | 1.4 fold
B3 | AUC |  |  |  | subunits per oligomer | 2
B4 (estF trimer 2-272 T3C/Q174C) | dynamic light scattering |  |  |  | subunits per oligomer | 3
B5 (retS periplasmic 41-185 S45C) | FRET |  | pH 7.4, 24 °C, NaCl 150 mM |  | Kd | 0.58 ± 0.05 µM
B6 (vapC L43A) | lacZ reporter |  |  | reference: wild type, higher = more transcription | vapBC transcription | 5.2 fold
B7 (collagen-like peptide) | ITC | peptide | pH 5.0, 22 °C |  | binding | binds
B8 (PUT2 23-575) | SAXS |  |  |  | subunits per oligomer | 6
B9 (rne 330-823 D694R/D738R) | SEC |  |  |  | subunits per oligomer | 2 and 4

A few entries again:
Sequence | test | test system | conditions | scale | endpoint | value
B5 (retS periplasmic 41-185 S45C) | FRET |  | pH 7.4, 24 °C, NaCl 150 mM |  | Kd | 0.58 ± 0.05 µM
